Measured values of several laboratories.
Compare with care: the assays were run in different laboratories. “And” joins repeats or separate records; there may be more than shown. ± gives the spread as reported.

Compound | test | system | conditions | how to read | endpoint | value
CC1=C(/C=C\C2=CCC[C@]3(C)[C@@H]([C@H](C)CCCC(C)C)CC[C@@H]23)C[C@@H](O)CC1 | LC-MS | human, epidermis | dose not given |  | endogenous concentration | 25.1 ± 5.2 ng/mg protein
CNCCOC12CC3(C)CC(C)(CC(Cn4ncc(-c5ccc(N6CCc7cccc(C(=O)Nc8nc9ccccc9s8)c7C6)nc5C(=O)O)c4C)(C3)C1)C2 |  | anaesthetised male beagle dogs | intravenous bolus, 0.03 mg/kg, 105 min | reference: baseline | systemic vascular resistance change | 67%
C=CC(=O)NC1CCN(c2ncc3ncnc(Nc4ccc(Oc5ccc6c(c5)ncn6C)c(C)c4)c3n2)CC1 | measured: dry mouth | human male | oral, dose not given, CTCAE on-treatment AEs |  | adverse events incidence | 0%
CC(C)c1nc(N(C)S(C)(=O)=O)nc(-c2ccc(F)cc2)c1/C=C/[C@@H](O)C[C@@H](O)CC(=O)O | measured: haematoma | healthy men | oral, dose not given, 8 days, treatment-emergent, crossover trial |  | subjects with adverse event | 0%
[18F]c1ccc(-c2ccc3c(c2)[nH]c2ccncc23)cn1 | microPET/CT imaging | APP/PS1 mouse, AD model, heart | intravenous, 20 min |  | SUV | 0.948 ± 0.45
C[Si](C)(C)O[Si](C)(C)O[Si](C)(C)C |  | 1-octanol/air | concentration not given |  | entropy of phase change | -0.054 kJ/(mol·K)
N#Cc1ccc2c(c1)[C@H]1CCCN(C(=O)c3ccc4[nH]cnc4c3)[C@H]1C2 |  | human females | 160 mg, day 7 |  | SHBG level | 27.9 nmol/L
FC(F)(F)c1ccc(CNc2ccc(Cc3c[nH]c4ncc(Cl)cc34)cn2)cn1 | measured: Insomnia | patients with advanced solid tumours, all cohorts | oral, 1000 mg/day, any grade |  | treatment-related adverse events | 12%
CC(C(=O)NCC(=O)NCC(CNC(=O)CNC(=O)C(C)N1CCN(CC(=O)[O-])CCN(CC(=O)[O-])CCN(CC(=O)[O-])CC1)(CNC(=O)CNC(=O)C(C)N1CCN(CC(=O)[O-])CCN(CC(=O)[O-])CCN(CC(=O)[O-])CC1)CNC(=O)CNC(=O)C(C)N1CCN(CC(=O)[O-])CCN(CC(=O)[O-])CCN(CC(=O)[O-])CC1)N1CCN(CC(=O)[O-])CCN(CC(=O)[O-])CCN(CC(=O)[O-])CC1.[Gd+3].[Gd+3].[Gd+3].[Gd+3] (stereo not shown) |  | cynomolgus monkey, muscle | dose not given, day 5 |  | lanthanide tissue concentration | 0.11 ± 0.028 nmol/g
CCn1cc(C(=O)N2CCOCC2)c(=O)c2cc(NC3Cc4ccccc4C3)cnc21 |  | human overall, fed, plasma | oral, 900 mg twice daily, day 1, tablet, arithmetic mean |  | Cmax | 4600 ng/mL
Cc1ccc([C@@H]2O[C@H](CO)[C@@H](O)[C@H](O)[C@H]2O)cc1Cc1ccc(-c2ccc(F)cc2)s1 | measured: inorganic phosphorus | Japanese type 2 diabetes patients | 200 mg, day 16, 24 h urine collection | reference: baseline | urinary phosphate excretion change | 38.2 mg
COc1nc(-c2cc(C)c(N[C@@H](C)c3cc(F)cc(F)c3)nn2)ccc1-n1cnc(C)c1 |  | cynomolgus monkey, male, plasma | intravenous, 1 mg/kg |  | Tmax | 15 min
Cc1cc(Nc2ccc(S(F)(F)(F)(F)F)cc2)n2nc(C(C)(F)F)nc2n1 |  | mouse (CD-1, female), plasma | oral, 300 mg/kg daily, 8 h after dose 10 |  | free plasma concentration | 354000 ± 65000 nM
CCN1/C(=C/C(C)=O)Sc2ccc(F)cc21 |  | cynomolgus monkey | oral, 100 mg/kg, 1 h post-dose |  | systolic blood pressure | 109 ± 5 mmHg
COc1cc(Nc2ncc3c(n2)-c2ccc(Cl)cc2C(c2c(F)cccc2OC)=NC3)ccc1C(=O)O | measured: Dyspnea, grade 1 | cancer patients, phase 1/2 | oral, dose not given, together with: pembrolizumab |  | patients with adverse event | 8%
Cc1c(-c2ccc(N3CCc4cccc(C(=O)Nc5nc6ccccc6s5)c4C3)nc2C(=O)O)cnn1CC12CC3(C)CC(C)(C1)CC(OCCNCC[C@H](O)CO)(C3)C2 |  | beagle dog, male, anaesthetised | intravenous infusion, 0.3 mg/kg/min, 30 min | reference: vehicle | dP/dt at 50 change | -16%
OCC1=C[C@@H](O)[C@@H]2C=CO[C@@H](O[C@@H]3O[C@H](CO)[C@@H](O)[C@H](O)[C@H]3O)[C@H]12 | post-procedure stability | rat plasma | 1000 ng/mL, 1 h, room temperature |  | accuracy | 87.8%
Oc1ccc(/C=C/c2cc(O)cc(O)c2)cc1 |  | rat, azoxymethane-injected, blood at sacrifice | 100 mg/kg |  | HDL cholesterol | 26 mg/dL and 23 mg/dL
O=C(O)CN1Cc2cccc(n2)CN(CC(=O)O)Cc2cccc(n2)C1 | differential pulse voltammetry |  |  | reference: Ag/AgCl | Mn(II)/Mn(III) half-wave potential | 0.772 V
CN1CC(=O)N2[C@H](c3ccc4c(c3)OCO4)c3[nH]c4ccccc4c3C[C@@H]2C1=O |  | human plasma | 400 ng/mL, 74 days, long-term storage -70 °C |  | accuracy | 98.1%
CCOC(=O)c1c(NC(=O)CNC(C)C)sc2c1CCCCC2 |  | mouse, brain | intraperitoneal, 100 mg/kg |  | brain AUC(0-24 h) | 31900 ng·h/g
Cc1cc(Nc2ccc(S(F)(F)(F)(F)F)cc2)n2nc(C(C)(F)F)nc2n1 |  | Plasmodium vivax malaria patients | oral, 800 mg |  | adverse event Vomiting | 0%
CNC(=O)c1ccc(-c2cnc3ncc(Cc4ccc5ncccc5c4)n3n2)cc1F |  | human, normal hepatic function, plasma | oral, 200 mg, adjusted geometric mean |  | unbound AUC(0-inf) | 183 ng·h/mL
COc1ccc([C@@H](O)c2cc(-c3ncnc4cc(N5CCOCC5)ccc34)c(F)cc2Cl)nn1 |  | locally advanced rectal cancer patients | 150 mg, together with: capecitabine and radiotherapy |  | drug-related lymphocyte count decrease | 17%
O=C(Nc1cnccc1Cl)N1CCN(Cc2ccc3c(c2)OC(F)(F)O3)CC1 | measured: Presyncope | human healthy young men | 10 mg, multiple dose |  | adverse event incidence | 33.3%
COc1cccc(OC)c1-c1cc(C(=O)NC2(C(=O)O)C3CC4CC(C3)CC2C4)nn1-c1ccc(C(=O)N(C)CCCN(C)CCCN(C)C(=O)CN2CCN(CC(=O)[O-])CCN(CC(=O)[O-])CCN(CC(=O)[O-])CC2)cc1C(C)C.[177Lu+3] (stereo not shown) |  | mouse, HT-29 xenograft | 72 h post injection, biodistribution | reference: tumour over blood uptake | tumour-to-blood ratio | 59.8
CC(C)[C@@H](CS(=O)(=O)C(C)C)N1C(=O)[C@@](C)(CC(=O)O)C[C@H](c2cccc(Cl)c2)[C@H]1c1ccc(Cl)cc1 |  | FVB mouse, Abcg2 knockout, brain | intravenous, 20 mg/kg, unit not given | reference: knockout Kp over wild-type Kp | brain distribution advantage | 0.75
C[C@H](N[C@@H](CCc1ccccc1)C(=O)O)C(=O)N1[C@H](C(=O)O)C[C@H]2CCCC[C@@H]21 |  | processed human plasma | 30 pg/mL, 48 h, 4 °C | reference: nominal | autosampler stability | 96.1 ± 9%

Compound | test | system | conditions | how to read | endpoint | value
NCCONC(=O)[C@@H]1CC[C@@H]2CN1C(=O)N2OS(=O)(=O)O |  | human male, urine | intravenous infusion, 2 g multiple doses, day 9 |  | amount excreted in urine (0-8 h) | 1620 mg
Cc1cc(NC2CCN(C(=O)OC3CCN(C(=O)/C=C/CN(C)C)C3)CC2)n2ncc(C(C)C)c2n1 (stereo not shown) | Phase I dose escalation CTCAE v4.0, measured: Fatigue | patients with advanced solid tumours | dose not given, TIW dosing any grade |  | patients with adverse event | 9%
CC(C)C[C@H](N)C(=O)N[C@@H](Cc1c[nH]c2ccccc12)C(=O)N[C@@H](Cc1c[nH]c2ccccc12)C(=O)N[C@@H](CCCNC(=N)N)C(=O)N[C@@H](Cc1c[nH]c2ccccc12)C(=O)N[C@@H](Cc1c[nH]c2ccccc12)C(=O)N[C@@H](CCCNC(=N)N)C(=O)N[C@@H](Cc1c[nH]c2ccccc12)C(=O)N[C@@H](CCCNC(=N)N)C(=O)O | circular dichroism | 50% TFE |  |  | helix content | 2.16%
CC(C)n1c(Nc2cccnc2)nc2cnc(Nc3ccc(N4CCN(C)CC4)cc3)nc21 | measured: nausea | healthy male subjects | oral, 100 mg, study, together with: gemfibrozil |  | subjects with adverse event | 7.1%
CC(C)(C)c1ccc(O)c(CN(Cc2cc(C(C)(C)C)ccc2O)C2CCC(NC(N)=O)CC2)c1 (stereo not shown) |  | C57BL/6 mouse, male, brain | oral, 10 mg/kg |  | dose-normalised Cmax | 55 ng/g per mg/kg
O=C(O)C1=CO[C@@H](O[C@@H]2O[C@H](CO)[C@@H](O)[C@H](O)[C@H]2O)[C@@H]2C(CO)=CC[C@H]12 | post-procedure stability | rat plasma | 200 ng/mL, 1 h, room temperature |  | accuracy | 103%
C=CC(=O)N1CCC[C@@H](n2nc(-c3ccc(Oc4ccccc4)cc3)c3c(N)ncnc32)C1 |  | Wistar rat, plasma | oral, dose not given, suspension |  | AUC(0-48 h) | 3700 ± 76.3 ng·h/mL
CC(=O)O[C@H]1C(=O)[C@@]2(C)[C@H]([C@H](OC(=O)c3ccccc3)[C@]3(O)C[C@H](OC(=O)[C@H](O)[C@@H](NC(=O)c4ccccc4)c4ccccc4)C(C)=C1C3(C)C)[C@]1(OC(C)=O)CO[C@@H]1C[C@@H]2O | measured: neutropenia | patients with advanced solid tumours | intravenous, dose not given, grade 3 and 4, possibly related to drug |  | adverse event incidence | 22%
COc1ccc2c(c1)CN(C(=O)CCN1CCC(Cc3ccccc3)CC1)CC[S@@+]2[O-] |  | anesthetized male beagle dogs, plasma | intravenous, 2 mg/kg total over 30 min, end of infusion |  | unbound plasma concentration | 470 nM
CNC(=O)c1ccc(-c2cnc3ncc(Cc4ccc5ncccc5c4)n3n2)cc1F | measured: Vomiting, all grades | cancer patients | oral, 600 mg twice daily, other expansion cohort, any causality |  | patients with adverse event | 28%
O=C(O)CCC(=O)O.[2H]C([2H])([2H])Oc1cc(C)c2[nH]ccc2c1CN1CC[C@@H](C2CC2)C[C@H]1c1ccc(C(=O)O)cc1 |  | healthy Chinese subjects | 50 to 600 mg, single ascending dose pooled |  | subjects with TEAEs | 41.7%
c1ccc2c(c1)c1cccc3ccc4cccc2c4c31 |  | polyethylene-water partitioning | PAH compilation |  | literature range of log K | 5.43 to 6.41 log units
Cl.[2H]C([2H])([2H])CC(=O)c1cnc(NC(=O)C2CC2)cc1Nc1cccc(-c2ncn(C([2H])([2H])[2H])n2)c1OC | geometric mean | human | oral, 20 mg twice daily, day 1, fed, liquid, multiple dose |  | AUC(0-inf) | 1040 ng·h/mL
CCc1cc(C(=O)NC)c2nccc(N3CCc4c(cc(Cn5ccnc5)cc4-c4cn(C)nc4C(F)(F)F)C3=O)c2c1 |  | Sprague Dawley rats | oral, 100 mg/kg once daily, 7 days |  | reticulocyte haemoglobin content | 20.6 ± 0.42 pg
Cc1coc([C@H]2C[C@H]3[C@@H](CF)SC(N)=N[C@@]3(c3ccc(F)cc3F)CO2)n1 |  | male 129/SVE mouse, brain | subcutaneous, 80 mg/kg, 9 h |  | brain concentration | 15 nM
Oc1ccc(Br)c2cccnc12 |  | oil/water | pH 7.4 |  | partition coefficient | 107
OC[C@H]1O[C@@H](c2ccc(Cl)c(Cc3ccc(O[C@H]4CCOC4)cc3)c2)[C@H](O)[C@@H](O)[C@@H]1O |  | Japanese type 1 diabetes patients, blood | 10 mg, day 28 | reference: baseline | change in Bicarbonate | -1.2 mEq/L
COc1cccc(-c2n[nH]c(SCc3ccccn3)n2)c1OC |  | Sprague-Dawley rat, female, plasma | oral gavage, 10 mg/kg |  | Cmax | 14900 ng/mL
Cn1cc(Nc2nccc(-c3ccc4c(c3)CN(C3COC3)CC[C@H]4NC(=O)c3cn(C(C)(C)C)nn3)n2)cn1 |  | human, whole blood | 150 mg twice daily, day 14 | reference: pre-dose baseline | granulocyte count change | -7.69%
CNC(=O)c1ccc(-c2cnc3ncc(Cc4ccc5ncccc5c4)n3n2)cc1F |  | Japanese patients | oral, 400 mg twice daily, grade 3/4 |  | Pneumonitis patients | 1%
CCOc1c([C@H](C)n2nc(C)c3c(N)ncnc32)cc(Cl)c(F)c1[C@@H]1CNC(=O)C1 |  | patients with indolent lymphoma, plasma | oral, 30 mg, day 15, monotherapy |  | Cmax | 2910 nM
NC(=O)c1cc(Oc2ccc(NC(=O)Nc3ccc(Cl)c(C(F)(F)F)c3)c(F)c2)cc[n+]1[O-] | long-term stability | mouse plasma | 75 ng/mL, 6 months, -80 °C |  | accuracy | 104%
Cc1cc(C)c(CNC(=O)c2cc(Cl)c3c(c2C)O[C@@](C)([C@H]2CC[C@H](N(C)C)CC2)O3)c(=O)[nH]1 |  | relapsed/refractory NHL patients | oral, 200 mg once daily, onset after cycle 1 day 1 |  | grade ≥3 adverse event Hyponatremia | 4.2%
C=CC(=O)Nc1cc(Nc2nccc(-c3cn(C4CC4)c4ccccc34)n2)c(OC)cc1N(C)CCN(C)C |  | BALB/c nude mouse, LU0387 xenograft, blood | oral, 40 mg/kg |  | BASO percentage | 0.06 ± 0.0245%
NC1(C(=O)N[C@@H](CCO)c2ccc(Cl)cc2)CCN(c2nc[nH]c3nccc2-3)CC1 |  | metastatic CRPC patients | dose not given, any grade, treatment-related, all doses, together with: enzalutamide 160 mg daily |  | incidence of Dysuria | 6.7%
O=C(Nc1nc2cccc(-c3ccc(CN4CCS(=O)(=O)CC4)cc3)n2n1)C1CC1 | measured: ankle fracture | human rheumatoid arthritis patients | oral, 200 mg once daily, 4 weeks, regardless of relatedness |  | treatment-emergent adverse events | 0%
C[C@@H](Oc1ccc(S(C)(=O)=O)cc1C(=O)N1C[C@@H]2C[C@]2(c2cc(C(F)(F)F)on2)C1)C(F)(F)F |  | young healthy humans, plasma and urine | oral, 50 mg, 0 to 24 h, multiple dosing once daily |  | renal clearance at steady state | 6.5 mL/min
